# Results collected from several papers.
# A part holds a random share of what one study measured. Substitutions count along the parent as printed.

# Study 1
# Target: CCNA1, cyclin fold, Cln2 fusion (human)
# Method: yeast growth competition, sequencing
# Matrix: yeast
# Notes: strong parent motif
# Baseline: not given
# Direction: higher = stronger binding
# Starting sequence: viral docking peptide; YKVKRRLVFGADD; partner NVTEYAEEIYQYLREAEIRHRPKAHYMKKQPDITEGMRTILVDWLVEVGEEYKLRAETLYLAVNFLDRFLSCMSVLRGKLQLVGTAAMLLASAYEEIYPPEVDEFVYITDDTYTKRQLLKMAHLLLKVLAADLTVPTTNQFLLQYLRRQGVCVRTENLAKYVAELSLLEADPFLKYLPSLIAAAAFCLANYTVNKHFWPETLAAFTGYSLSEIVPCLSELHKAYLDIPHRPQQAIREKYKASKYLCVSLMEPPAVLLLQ
Substitution,normalised enrichment score
AKVKRRLVFGADD [Y1A],0.428
YKVKYRLVFGADD [R5Y],0.0129
YKLKRRLVFGADD [V3L],0.468
YKVKRRMVFGADD [L7M],0.363
YKVKRRLVAGADD [F9A],-0.0448
YKVKRRLVCGADD [F9C],0.487
YKVKRTLVFGADD [R6T],0.523
YKVKKRLVLGADD [R5K F9L],0.178
YKVKRRLTFGADD [V8T],1.14
YHVKRRLVFGADD [K2H],1.36
YKVKERLVFGADD [R5E],0.112
YKVKRCLVFGADD [R6C],0.826
YKVKRRLVFAADD [G10A],0.76
YWVKRRLVFGADD [K2W],0.625
YKVPRRLVFGADD [K4P],0.375
YKVKRRLVFGARD [D12R],0.579
YKVVRRLVFGADD [K4V],-0.308
YKVKDRLVFGADD [R5D],0.134
YKVKRRLVFGNDD [A11N],1.28
YKDKRRLVFGADD [V3D],0.146
YKVKRRLVNGADD [F9N],0.517
YKVKRRLCFGADD [V8C],1.19
YVVKRRLVFGADD [K2V],1.22

# Study 2
# Target: vanadate, free oxyanion
# Method: microfluidic competitive inhibition
# Matrix: in vitro, cell-free expressed
# Tested at: not given
# Notes: derived from inhibition constants, unchanged parent 676 nM
# Direction: lower = stronger binding
# Starting sequence: PafA, mature enzyme, eGFP fusion (Elizabethkingia meningoseptica, UniProt Q9KJX5); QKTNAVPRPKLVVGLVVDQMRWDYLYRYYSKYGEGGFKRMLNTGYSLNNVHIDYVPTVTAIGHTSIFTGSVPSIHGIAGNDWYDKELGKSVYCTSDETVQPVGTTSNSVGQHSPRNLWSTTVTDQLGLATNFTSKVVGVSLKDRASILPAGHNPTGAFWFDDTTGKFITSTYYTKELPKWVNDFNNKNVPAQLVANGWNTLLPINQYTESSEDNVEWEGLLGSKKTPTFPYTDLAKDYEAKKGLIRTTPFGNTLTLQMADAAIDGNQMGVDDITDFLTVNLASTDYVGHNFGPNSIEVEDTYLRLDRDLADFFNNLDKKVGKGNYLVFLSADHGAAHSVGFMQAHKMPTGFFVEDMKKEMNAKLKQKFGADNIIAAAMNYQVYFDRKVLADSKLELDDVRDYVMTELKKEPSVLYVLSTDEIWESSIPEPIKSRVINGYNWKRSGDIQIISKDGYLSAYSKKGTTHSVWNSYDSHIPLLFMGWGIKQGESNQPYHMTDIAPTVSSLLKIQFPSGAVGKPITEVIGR
Substitution,oxyanion analog dissociation constant
N186G,576 nM
Y455V,882 nM
L305V,609 nM
V270A,716 nM

# Study 3
# Target: Phosphate system positive regulatory protein PHO4, full length, GST-tagged (PHO4, Saccharomyces cerevisiae, UniProt P07270, residues 1-312)
# Method: competition protein-binding microarray
# Molecule type: double-stranded DNA, one strand shown
# Matrix: in vitro
# Tested at: 2 µM
# Notes: whole 60-bp probe, lowest competitor level
# Added: Cbf1 competitor, 0.05 µM
# Direction: higher = stronger binding
# Constant ends, left off below: … GTCTTGATTCGCTTGACGCTGCTG
# Residues (chain): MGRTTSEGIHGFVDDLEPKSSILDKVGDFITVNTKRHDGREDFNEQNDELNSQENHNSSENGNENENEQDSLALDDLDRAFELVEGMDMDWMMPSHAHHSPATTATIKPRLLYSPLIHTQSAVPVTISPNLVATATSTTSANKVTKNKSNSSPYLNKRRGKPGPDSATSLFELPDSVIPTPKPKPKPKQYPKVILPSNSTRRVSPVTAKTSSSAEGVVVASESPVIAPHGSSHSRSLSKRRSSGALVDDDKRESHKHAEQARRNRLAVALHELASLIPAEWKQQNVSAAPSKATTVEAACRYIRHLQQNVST
Sequence,fluorescence intensity
TTGCTCACTTTCTAATACGTGCAAACCTTTACAAGC,6140 a.u.
AGTCTCCTTTGCTCTTTCGTGATGGACCCACCGTAT,3420 a.u.
AAAGAACCGTTTTAGCACGTGTTGATTGTCCATTTA,19300 a.u.
CCGGGGGCATATTGACGCGTGGAAGAATAGAAGTCC,9350 a.u.
AAAGCGGTAATTTGCGTAGTGGGTGCAGATATCTAT,4340 a.u.
TTGTTTCCTGGGAACTACGTGCAAATCAACAAGAAA,6040 a.u.
TAGGCCGTACCGGTTCTCGTGGTGATGTTACCCAAG,6060 a.u.
GATCAAAAAAATACTCACGTGTCCTGGAGTCATAAA,15200 a.u.

# Study 4
# Target: Eukaryotic initiation factor 4A-I (EIF4A1, Homo sapiens, UniProt P60842, residues 1-406, full length assumed)
# Chain of UniProt P60842 (whole entry, looked up): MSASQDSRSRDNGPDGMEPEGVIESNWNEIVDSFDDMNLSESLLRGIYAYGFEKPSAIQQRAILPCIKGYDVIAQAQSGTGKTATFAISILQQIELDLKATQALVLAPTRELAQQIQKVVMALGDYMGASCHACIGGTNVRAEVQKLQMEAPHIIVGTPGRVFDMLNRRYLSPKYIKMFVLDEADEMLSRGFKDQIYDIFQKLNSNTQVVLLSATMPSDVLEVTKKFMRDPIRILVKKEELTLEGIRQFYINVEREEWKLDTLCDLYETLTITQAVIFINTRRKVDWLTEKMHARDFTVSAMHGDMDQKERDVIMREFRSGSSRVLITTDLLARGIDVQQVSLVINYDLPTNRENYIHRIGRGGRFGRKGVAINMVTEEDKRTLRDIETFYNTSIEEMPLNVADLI
# Method: RNA Bind-n-Seq
# Molecule type: RNA
# Matrix: in vitro
# Tested at: 15 pmol
# Notes: 4-mer, random 30-nt RNA, single round
# Added: 3 µM DMDA-PatA, 2 mM AMP-PNP
# Baseline: input library
# Direction: higher = stronger binding
Sequence,4-mer enrichment [fold]
AACU,0.764
CCGG,1.2
GUUC,0.87
UACG,1.05
ACCA,0.277
CGUU,0.977
GCUG,0.925
UCUC,0.64

# Study 5
# Target: Ras GTPase-activating protein-binding protein 1, full length (G3BP1, Homo sapiens, UniProt Q13283)
# Chain of UniProt Q13283 (whole entry, looked up): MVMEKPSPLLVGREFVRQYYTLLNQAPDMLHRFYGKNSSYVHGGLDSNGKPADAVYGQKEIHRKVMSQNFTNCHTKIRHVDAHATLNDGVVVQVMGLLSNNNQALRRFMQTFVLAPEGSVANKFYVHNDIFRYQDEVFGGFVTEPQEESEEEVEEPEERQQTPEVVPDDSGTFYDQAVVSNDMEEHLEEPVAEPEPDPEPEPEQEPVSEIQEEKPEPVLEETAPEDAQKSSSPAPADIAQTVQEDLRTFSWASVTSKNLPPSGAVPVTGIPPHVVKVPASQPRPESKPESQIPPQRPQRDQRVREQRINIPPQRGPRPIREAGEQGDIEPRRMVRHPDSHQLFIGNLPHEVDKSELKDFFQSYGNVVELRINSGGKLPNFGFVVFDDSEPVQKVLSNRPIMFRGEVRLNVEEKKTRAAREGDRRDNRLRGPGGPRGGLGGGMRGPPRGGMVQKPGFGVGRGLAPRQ
# Method: RNA Bind-n-Seq
# Molecule type: RNA
# Matrix: in vitro
# Tested at: 200 nM
# Notes: whole 134-nt RNA, ends assumed
# Added: 150 mM KCl
# Baseline: input library
# Direction: higher = stronger binding
# Constant ends, left off below: GGGAGUUCUACAGUCCGACGAUC … UGGAAUUCUCGGGUGUCAAGG
Sequence,log2 enrichment
CAAGUCCUGUGCUACACAUCGUAUGUACCGAAUCGGGCCCGGGGCCCGGCCCGGGAAAGUAUUAUGUUACGCCGUUCGGAUCUGCACUUC,-0.904
CAAGUCCUGUGCUACACAUCGUAUGUACCGAAUCGGUUUGGGUUUGGGGUUUGGGAAAGUAUUAUGUUACGCCGUUCGGAUCUGCACUUC,-0.318
UCCUGUGCUACACAUCGUAUGUACCGAAUCGGGGUUUUUGGGGUUUUUUUGGGGUGGGGAAAGUAUUAUGUUACGCCGUUCGGAUCUGCA,0.825
CAGCAGUGAGUCUCUUCAGAAAACCCUUUUCUACAGUUAGGGUUGAGUUACUUCCUAUCAAGCCAGUACGUGCUAACAGGCUCAAUAUUC,-1.26
UCAAGUCCUGUGCUACACAUCGUAUGUACCGAAUCGGAAAGGUUUUUGGUUUGGAAAGUAUUAUGUUACGCCGUUCGGAUCUGCACUUCC,-1.17
GUCCUGUGCUACACAUCGUAUGUACCGAAUCAAACCCCCCCAAAUUUUUAAACCCAAAAAAGUAUUAUGUUACGCCGUUCGGAUCUGCAC,0.031
CUGUGCUACACAUCGUAUGUACCGAAUCGGGGAAAAAAGGGGAAAAAAGGGGAAAAAAGGGGAAAGUAUUAUGUUACGCCGUUCGGAUCU,-0.264
AGUCCUGUGCUACACAUCGUAUGUACCGAAUCGGGGAAAAAAAGGGGAGGGGAGGGGAAAGUAUUAUGUUACGCCGUUCGGAUCUGCACU,0.668

# For quick reference, copied from above (study 4):
Sequence,4-mer enrichment [fold]
AACU,0.764
UCUC,0.64
GCUG,0.925
CCGG,1.2
GUUC,0.87
